Published values pooled from the literature.
Protocols differ between the studies behind these lines. ± marks the error that the study gave.

SMILES | test | system | setting | how to read | measurement | result
CC/C=C\C/C=C\C/C=C\C/C=C\C/C=C\CCCCOC(CC)C(=O)O (stereo not drawn) | – | APOE*3Leiden.CETP mice, high-fat/cholesterol diet | dose not given, 20 weeks | reference: control | hepatic HETE isomers | decreased
Cc1nc(C)c(C=[N+]([O-])C(C)(C)C)nc1C | Western blot, measured: Akt phospho-Ser473 | mouse, MPTP model | 30 mg/kg | – | protein level increase | 90%
NS(=O)(=O)c1ccc(NC(=O)NN[C@@H]2O[C@H](CO)[C@@H](O)[C@H](O)[C@H]2O)cc1 | – | rabbit glaucoma model | topical ocular, 2% | – | duration of IOP reduction | ≤ 6 h
CCCN(c1ccc(C(=O)NCCC(=O)O)cc1)S(=O)(=O)c1cc(C)c(-c2ccc(C(C)(C)C)cc2)c(C)c1 | – | HFD-induced obese mouse | oral, 50 mg/kg once daily, weeks 3 and 4 | – | non-fasting blood glucose | decreased
Cc1cc(=O)[nH]c2ccc(OCCCC(=O)N3CCN(C)CC3)cc12 | – | rat, isolated spontaneously beating atria | 100 µM | reference: baseline | contraction rate increase | 32 ± 4%
C=C(c1ccc(C(=O)O)c(F)c1)c1cc2c(cc1C)C(C)(C)C=CC2(C)C | RNA sequencing, measured: Sycp2 | rat, brain | dose not given, 24 h | reference: vehicle | log2 fold change | -0.28
Nn1c(S)nnc1CCN(c1ccc(Cl)cc1)S(=O)(=O)c1ccccc1 | seizure | maximal electroshock model | 200 mg/kg | – | protection | 66%
COc1cc2c(cc1OC)-c1cc3ccc(OC)c(OC)c3c[n+]1CC2 | – | rat, STZ-induced diabetic, serum | oral, 12 mg/kg, day 28 | – | AST activity | 70.9 ± 2.11 U/L
CC(C)c1cnc(-c2cc(Cl)ccc2F)cc1Nc1ccncc1C(=O)NC(CO)CO | SMAD2 phosphorylation | mouse, 4T1 tumour, tumour | 30 mg/kg twice daily then once, 3 h, normalized maximum | – | inhibition | 70%
CC(C)CN(CC(C)C)C(=O)/C=C/C=C/c1ccc2c(c1)OCO2 | – | C57BL/6N mice | ip, 10 mg/kg, 30 min before PTZ, together with: PTZ iv infusion | – | PTZ seizure threshold | 47.6 ± 3.4 mg/kg PTZ
CC(=O)N[C@@H](CC(N)=O)C(=O)NCC(=O)N[C@@H](C)C(=O)N[C@@H](C)C(N)=O | 1H NMR | sodium phosphate buffer 50 mM | pH 7.4, 55 °C | – | rate constant succinimide to β-Asp | 5.21 h⁻¹
CN1Cc2c(Cl)cc(Cl)cc2C(c2cccc(S(=O)(=O)NCCOCCOCCNC(=O)C(O)C(O)C(=O)NCCOCCOCCNS(=O)(=O)c3cccc(C4CN(C)Cc5c(Cl)cc(Cl)cc54)c3)c2)C1 (stereo not drawn) | – | Sprague Dawley rats | oral, 3 mg/kg, 16 h | higher = more watery | stool form score | 1.5
C[C@@H]1Cc2c([nH]c3ccccc23)[C@@H](c2c(F)cc(/C=C/C(=O)O)cc2F)N1C12CC(C1)C2 | – | patients ER+ advanced breast cancer | dose not given, monotherapy | – | overall response rate | 5%
COc1c2c(cc3oc(CO)cc(=O)c13)O[C@H](C(C)(C)O)C2 | analgesia | mouse | oral, 4 mg/kg, 0.5 h | – | hot plate latency | 13.9 ± 3.63 s
CC(=O)N/C(N)=N/C(=N\S(=O)(=O)c1ccc(C(F)(F)F)cc1)N1C[C@H](c2ccccc2)C(c2ccc(Cl)cc2)=N1 | hyperinsulinaemic euglycaemic clamp | diet-induced obese mice, wild-type and β-arrestin-2 knockout | oral, 1 mg/kg, single dose | – | hepatic glucose production | decreased
CCC1CC2C(C)=CC3C(=O)CCCC3C=CC(C)=CC2C(=O)O1 (stereo not drawn) | dot blot | 5XFAD transgenic mouse, hippocampus | oral, 30 mg/kg/day three times per week, 1 month, not significant | reference: vehicle | soluble oligomeric Aβ reduction | 17.3%
CC1=C(O)C(=O)C=C2C1=CC=C1[C@@]2(C)CC[C@@]2(C)[C@@H]3C[C@](C)(C(=O)NCCOCCOCCOCCOCC(=O)N[C@H](C(=O)N4C[C@H](O)C[C@H]4C(=O)N[C@@H](C)c4ccc(-c5scnc5C)cc4)C(C)(C)C)CC[C@]3(C)CC[C@]12C | flow cytometry | mouse, B16-F10 melanoma model, spleen and blood | ip, 2 doses of 1.8 mg/kg | – | B cells | no effect
Cl.[Cl][Ru-4]123([n+]4ccccc4-c4cc(-c5ccccc5)cc([n+]41)-c1cccc[n+]12)[n+]1ccc(-c2ccccc2)c2ccc4c(-c5ccccc5)cc[n+]3c4c21 | DNA damage, gel electrophoresis | pUC19 plasmid DNA | 16 h, 37 °C | – | EC50 | 12.2 µM
Cn1cnc(C[C@H](NC(=O)c2nccnc2N)C(=O)N2CCC[C@H]2C(N)=O)c1 | – | Swiss albino mice | iv, 10 µmol/kg, together with: pentobarbital 50 mg/kg ip | – | sleeping time | 31.5 ± 6.7 min
Cc1c(C)c(C)[c-](C)c1C.O=C1c2cccc[n+]2[Ir]([Cl])[N]1CCCCCCCCCC[P+](c1ccccc1)(c1ccccc1)c1ccccc1.[Br-] | 4-hydroxynonenal reduction | PBS/DMSO | 24 h, 37 °C, 1 mol% catalyst, together with: excess sodium formate | – | yield | 85%
Cc1cc(O)c(C=O)c2c1C(=O)Oc1c(CO)c(O)c3c(c1O2)C(O)OC3=O (stereo not drawn) | – | streptozotocin diabetic male rats | 5 mg/kg, 0 weeks | – | body weight | 198 ± 7.91 g
COc1ccc2c(c1)c(CC(=O)OCC(=O)OC(C)(C)C)c(C)n2C(=O)c1ccc(Cl)cc1 | hot plate test | BALB/c mice | 100 mg/kg, 120 min | – | latency of nociceptive response | 16.6 ± 1.34 s
COc1ccc(C2CC(c3ccc(C)cc3)=Nc3ccccc3S2)cc1 (stereo not drawn) | – | Wistar rat, STZ-induced diabetes | oral, 10 mg/kg once daily, day 1 | – | body weight | 191 ± 4.11 g
C=CC(=O)N1C[C@H](C)N(c2nc(OC[C@@]34CCCN3C[C@H](F)C4)nc3c(F)c(-c4ccc(F)c5sc(N)c(C#N)c45)c(C(F)(F)F)cc23)C[C@H]1C | tumour growth | mouse, NCI-H358 xenograft | oral, once daily, 28 days | – | ED90 | 1.6 mg/kg
C[N+](C)(CI)CCO | – | human platelet-rich plasma | 20 µM, together with: ADP 2 µM | – | platelet aggregation | no effect
O=C1NCC(c2ccc(F)c(F)c2)C1C(=O)Nc1ccccc1F (stereo not drawn) | – | whole plants | concentration not given | – | herbicidal activity | active
COc1ccc(C2CC(c3ccc(C)cc3)=Nc3ccccc3S2)cc1OC (stereo not drawn) | – | Wistar rat, STZ-induced diabetes | oral, 10 mg/kg once daily, day 14 | – | body weight | 177 ± 4.51 g
